Literature values that unrelated publications cite.
Compare with care: the assays were run in different laboratories. ± marks the error that the study gave. ≈ marks a conversion by molar mass, not a printed value.
Chain of UniProt Q9BVS4 (whole entry, looked up): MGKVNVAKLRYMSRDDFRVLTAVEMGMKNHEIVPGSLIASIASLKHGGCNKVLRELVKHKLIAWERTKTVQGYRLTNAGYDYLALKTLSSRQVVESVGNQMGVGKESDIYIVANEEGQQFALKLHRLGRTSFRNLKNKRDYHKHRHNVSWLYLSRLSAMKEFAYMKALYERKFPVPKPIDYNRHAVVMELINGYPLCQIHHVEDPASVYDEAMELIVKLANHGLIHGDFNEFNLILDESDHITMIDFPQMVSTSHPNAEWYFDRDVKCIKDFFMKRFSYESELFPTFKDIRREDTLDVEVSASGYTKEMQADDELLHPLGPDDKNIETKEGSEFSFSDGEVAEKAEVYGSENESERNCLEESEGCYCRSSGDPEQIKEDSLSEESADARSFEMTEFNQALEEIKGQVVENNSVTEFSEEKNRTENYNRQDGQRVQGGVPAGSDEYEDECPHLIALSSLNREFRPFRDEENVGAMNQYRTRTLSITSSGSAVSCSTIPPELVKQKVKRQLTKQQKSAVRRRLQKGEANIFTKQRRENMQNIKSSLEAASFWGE

Compound	tested on	assay	system	conditions	scale	quantity	value
O=C(c1ccc(Cl)cc1)N(Cc1ccccc1)C1CCCCC1	HUVEC	cell viability	–	–	–	highest non-toxic concentration	≤ 1 nM
CCC(CC)COC(=O)[C@H](C)N[P@](=O)(OC[C@H]1O[C@@](C#N)(c2ccc3c(N)ncnn23)[C@H](O)[C@@H]1O)Oc1ccccc1	Vero	cytotoxicity	–	–	–	CC50	> 100 µM
O=C1Oc2ccc3ccccc3c2C1c1c[nH]c2ccccc12 (stereo not drawn)	COLO 205 colon adenocarcinoma	–	–	concentration not given	–	cytotoxicity	no effect
CC1(C)S[C@@H]2[C@H](NC(=O)[C@H](N)c3ccccc3)C(=O)N2[C@H]1C(=O)O	Enterobacter cloacae	–	clinical isolate RKI-No_546/13	–	–	MIC	> 16 µg/mL
C=CCCC(=O)O	mouse D3 embryonic stem cells	cell differentiation, inhibitor	–	unbound medium concentration	–	IC10	71 µM
Nc1ccccc1NC(=O)c1ccc(CNC(=O)OCc2cccnc2)cc1	HEK293	cell viability, MTT	–	–	–	IC50	7.11 ± 1.06 µM
CC(=O)O[C@H]1C(=O)[C@@]2(C)[C@H]([C@H](OC(=O)c3ccccc3)[C@]3(O)C[C@H](OC(=O)[C@H](O)[C@@H](NC(=O)c4ccccc4)c4ccccc4)C(C)=C1C3(C)C)[C@]1(OC(C)=O)CO[C@@H]1C[C@@H]2O	MCF7	cytotoxicity	–	–	–	IC50	0.0009 µM
COc1ccc2c(c1OC)CN1CCc3cc4c(cc3C1=C2)OCO4	mouse lymphoma L5178Y TK cells	–	–	concentration not given	–	cytotoxicity	not toxic
CNC(C)C1CCC(N)C(OC2C(N)CC(N)C(OC3OCC(C)(O)C(NC)C3O)C2O)O1 (stereo not drawn)	Escherichia coli	–	clinical isolate RKI 6 A-6	–	–	MIC	1 µg/mL (≈ 2.09 µM)
CCCCC(CC)C(=O)O (stereo not drawn)	mouse D3 embryonic stem cells	cell differentiation, inhibitor	–	unbound medium concentration	–	IC10	406 µM
CC(Nc1nc(N2CCCC2)nc2ccccc12)c1ccccc1 (stereo not drawn)	HeLa	–	–	100 µM	–	toxicity	toxic
CCCCCC(CCC)C(=O)O (stereo not drawn)	human neural embryonic cells	cell viability	–	unbound medium concentration	–	EC10	43 µM
Cc1cc(/C=C/C#N)cc(C)c1Nc1ccnc(Nc2ccc(C#N)cc2)n1	MT-4	–	–	–	–	CC50	~5 µM
C=CCC(CCC)C(=O)O (stereo not drawn)	mouse D3 embryonic stem cells	cell viability	–	unbound medium concentration	–	IC10	222 µM
CC(C)C[C@@H](NC(=O)[C@H](C)NC(=O)CNC(=O)[C@@H](NC=O)C(C)C)C(=O)N[C@@H](C)C(=O)N[C@@H](C(=O)N[C@H](C(=O)N[C@@H](C(=O)N[C@@H](Cc1c[nH]c2ccccc12)C(=O)N[C@H](CC(C)C)C(=O)N[C@@H](Cc1c[nH]c2ccccc12)C(=O)N[C@H](CC(C)C)C(=O)N[C@@H](Cc1c[nH]c2ccccc12)C(=O)N[C@@H](C(=O)N[C@@H](Cc1c[nH]c2ccccc12)C(=O)NCCO)C(C)C)[C@H](C)O)C(C)C)C(C)C	P388 mouse leukaemia	cytotoxicity	–	–	–	IC50	0.387 ± 0.0909 µM
CC(C)C[C@H](NC(=O)[C@@H](O)[C@H](N)Cc1ccccc1)C(=O)O	Vero	MTT	–	–	–	CC50	25 ± 4.1 µM
CCCC(CCC)C(=O)O	mouse D3 embryonic stem cells	cell differentiation, inhibitor	–	unbound medium concentration	–	IC10	189 µM
C[C@@H]1O[C@@H](OC[C@H]2O[C@@H](Oc3c(-c4ccc(O)c(O)c4)oc4cc(O)cc(O)c4c3=O)[C@H](O)[C@@H](O)[C@@H]2O)[C@H](O)[C@H](O)[C@H]1O	Vero	–	–	–	–	CC50	329 µg/mL
COc1c(Br)cccc1C(=O)Nc1ccc(Sc2nc3ccccc3s2)cc1	HEK293	–	–	–	–	CC50	> 100 µM
COC(=O)N[C@@H](C)CNc1nccc(-c2cn(C(C)C)nc2-c2cc(Cl)cc(NS(C)(=O)=O)c2F)n1	human primary hepatocytes	inducer	–	concentration not given	–	CYP2C9 induction	increased
Nc1cc(C(F)(F)F)c(-c2nc(N3CCOCC3)nc(N3CCOCC3)n2)cn1	RIOK2 (Homo sapiens, UniProt Q9BVS4)	enzyme activity	–	10 µM	relative to: untreated	remaining activity	90%
CCCC(C)C(=O)O (stereo not drawn)	mouse D3 embryonic stem cells	cell viability	–	unbound medium concentration	–	IC10	2600 µM
O=C(CCc1ccc(O)cc1)c1c(O)cc(O)cc1O	H1299	cytotoxicity, MTT	–	–	–	IC50	54 µM
CCCCCCc1ccc(C(=O)CCN(CCCC)CCCC)cc1	several cell lines	–	–	150 µM	–	viability	< 5%
